Experimental data of several laboratories.
± marks the error that the study gave. Values after ≈ are worked out from the molar mass of the structure shown.

SMILES	test	system	setting	how to read	endpoint	result
CC(C)c1nc(N(C)S(C)(=O)=O)nc(-c2ccc(F)cc2)c1/C=C/[C@@H](O)C[C@@H](O)CC(=O)O	–	human	oral, 10 mg, compound alone	–	participants with TRAE dizziness	0%
O=C(Nc1nc2cccc(-c3ccc(CN4CCS(=O)(=O)CC4)cc3)n2n1)C1CC1	refers to: somnolence	rheumatoid arthritis patients	oral, 150 mg once daily, 4 weeks, any relatedness	–	treatment-emergent adverse events	0%
Cc1nc2cccc(OCC(C)(C)C(=O)NC(C)C)c2c(N)c1C(=O)O	–	Swiss albino CD-1 mouse	oral, 500 mg/kg, 48 h	–	mean body weight change	1.1 ± 0.6 g
C[C@@H]1COCCN1c1cc(C2([S@](C)(=N)=O)CC2)nc(-c2cc[nH]c3nccc2-3)n1	–	Japanese advanced solid tumour patients	oral, 240 mg twice daily, CTCAE grade ≥3	–	Fatigue incidence	0%
CCCCCc1ccc(C(=O)Oc2ccc(C#N)c(F)c2)cc1	–	Sprague-Dawley rat, female, placenta	5000 ng/mL in perfusate, 50 (unit not given), high dose, mixture of 21 LCMs	–	median placental accumulation	37.6 ng/g
CNC(=O)c1ccc(-c2cnc3ncc(Cc4ccc5ncccc5c4)n3n2)cc1F	–	Japanese patients	oral, 400 mg, any grade	–	Neutrophil count decreased dose reduction/interruption	2%
Nc1ncc(-c2ccncc2)nc1Nc1ccc2[nH]ccc2c1	–	mouse C57BL male, urine	intravenous, 5 mg/kg	–	unchanged dose excreted in urine	< 0.01%
O=C(N[C@H](Cc1c[nH]c2ccccc12)C(=O)Nc1ccncc1)c1ccc(N2CCN(c3ccc(F)c(F)c3)CC2)cc1F	–	Swiss Webster mouse, female, heart	oral, 50 mg/kg, 2 h, 20% HPβCD vehicle	–	concentration	520 nM
O=C1NCCc2nc(OCc3cccc(F)c3)ccc21	refers to: tail pinch	Sprague-Dawley rat male	oral, 100 mg/kg, 30 min	direction not given	Irwin test score	0
C=CCN1CC(=O)N2[C@@H](Cc3ccc(O)cc3F)C(=O)N(Cc3cccc(N4CC(N5CCN(CC)CC5)C4)n3)C[C@@H]2N1C(=O)NCc1ccccc1	–	advanced solid tumour patients	oral, 100 mg twice daily, any grade, dose-escalation	–	treatment-related AST increased	33.3%
C[C@H]1O[C@@H](O[C@H]2[C@@H](O)C[C@H](O[C@H]3[C@@H](O)C[C@H](O[C@H]4CC[C@@]5(C)[C@H](CC[C@@H]6[C@@H]5C[C@@H](O)[C@]5(C)[C@@H](C7=CC(=O)OC7)CC[C@]65O)C4)O[C@@H]3C)O[C@@H]2C)C[C@H](O)[C@@H]1O	refers to: vessel puncture site pain	human	oral, 0.25 mg	–	participants with TEAE	0%
CNC(=O)c1ccc(-c2nn3c(Cc4ccc5ncccc5c4)cnc3[nH]c2=O)cc1F	–	human plasma	-70 °C	–	storage stability	≥ 674 days
Cc1cccc(CNC(=O)c2cn(CCNC(=O)c3ccccc3Sc3c([N+](=O)[O-])ncn3C)c3cc4c(cc3c2=O)OC(F)(F)O4)n1	–	Sprague-Dawley rat, male, whole blood	intravenous, 5 mg/kg of parent compound	–	AUC(0-inf)	72 ± 6.69 ng·h/mL
CCCCC[C@H](O)CC[C@@H]1[C@H]2Cc3cccc(OCC(=O)O)c3C[C@H]2C[C@H]1O	LC-MS/MS	Japanese CTD-associated PAH patients, plasma	inhaled, 54 µg	–	geometric mean AUC(0-inf)	0.59 ng·h/mL
CCN1CCN(Cc2ccc(NC(=O)c3ccc(C)c(NC(=O)c4cncc(-c5cccs5)c4)c3)cc2C(F)(F)F)CC1	–	C57BL/6 mice, plasma	intraperitoneal, 15 mg/kg	–	extrapolated AUC share	8.93%
CC(C)NCCCC[C@@H]1NC(=O)[C@H](Cc2ccc(O)cc2)NC(=O)[C@H](Cc2ccccc2)NC(=O)CC[C@H](C(=O)N[C@@H](CCCCNC(C)C)C(=O)N[C@@H](CCCCNC(=O)[C@H](CCC(=O)O)NC(=O)[C@H](CCC(=O)O)NC(=O)[C@H](CCC(=O)O)NC(=O)CN2CCN(CC(=O)O)CCN(CC(=O)O)CCN(CC(=O)O)CC2)C(N)=O)NC(=O)CNC(=O)[C@H](Cc2ccc3ccccc3c2)NC(=O)[C@@H](CCCNC(=N)N)NC1=O [gallium-68 labelled]	–	mouse with JeKo-1 xenograft, kidney	intravenous, 1 h	–	tissue uptake	3.45 %ID/g
COc1ccc([C@@H](O)c2cc(-c3ncnc4cc(N5CCOCC5)ccc34)c(F)cc2Cl)nn1	–	locally advanced rectal cancer	oral, 100 mg, with: capecitabine and radiotherapy	–	incidence of proctalgia TEAE	50%
O=C(/C=C/CCc1ccc(O)cc1)/C=C/c1ccc(O)cc1	–	nude mouse MCF7 xenograft	40 mg/kg, day 2	–	body weight	20 ± 1.12 g
CCN1/C(=C/C(C)=O)Sc2ccc(F)cc21	–	cynomolgus monkey	oral, 100 mg/kg, 4 h post-dose	–	heart rate	100 ± 23 beats/min
Cc1cc(C(=O)NC(C)(C)COc2cccc3c2C(N)=NS(=O)(=O)N3)cc(C)n1	–	Sprague-Dawley rat, plasma	oral, 10 mg/kg, vehicle 1% methylcellulose	reference: female over male	Cmax ratio	1.32
CNCc1ccc(-c2[nH]c3cc(F)cc4c3c2CCNC4=O)cc1	–	human patients	oral, 600 mg twice daily, grade 4	–	nausea incidence	0%
O=C1c2ccncc2C(=O)c2c1[nH]c1ccccc21	–	Sprague-Dawley rat, male, plasma	intravenous, 1 mg/kg	–	MRT	7.2 ± 0.8 h
COc1ccc2c(c1)CN(C(=O)CCN1CCC(Cc3ccccc3)CC1)CC[S@@+]2[O-]	telemetry	conscious male beagle dogs	intravenous, 8 mg/kg, 2 h	–	QTc interval	260 ± 11 ms

SMILES	test	system	setting	how to read	endpoint	result
O=C(O)c1cc(/N=N/c2ccc(S(=O)(=O)Nc3ccccn3)cc2)ccc1O	shake-flask	Cremophor ELP	37 °C, water up to 0.5% w/w	–	thermodynamic solubility	6.35 ± 0.33 mg/g
Cc1cc(-c2nccc3c2ccn3CC(=O)Nc2ccc(-c3cnccn3)cn2)ccn1	–	human	20 mg once daily, multiple ascending dose	–	subjects with any TEAE	66.7%
CCCC1CCC(c2ccc(OCC)c(F)c2F)CC1 (stereo not drawn)	–	rat, placenta	5000 ng/mL in perfusate, high dose, mixture of 21 LCMs	–	median placental accumulation	246 ng/g
Cc1cc(NC2CCN(C(=O)OC3CCN(C(=O)/C=C/CN(C)C)C3)CC2)n2ncc(C(C)C)c2n1 (stereo not drawn)	Phase I dose escalation CTCAE v4.0, refers to: ALT increased	patients with advanced solid tumours	dose not given, TIW dosing grade 3 or higher	–	patients with adverse event	0%
C=C1C(=O)O[C@H]2[C@H]1CC/C(CO)=C\CC[C@@]1(C)O[C@@H]21	–	BALB/c mice male, blood	oral, 757 µmol/kg	–	time to appearance in blood	≤ 15 min
CN1CCC[C@H](CN2c3ccccc3Sc3ccccc32)C1.Cl	–	fasted female ICR mouse, liver	oral, 16 mg/kg	–	Tmax	0.25 h
c1csc(CNc2cc[nH]n2)c1	alkaline comet	Hsd:ICR(CD-1) mice, female, liver	oral, 500 mg/kg/day, 3 days	–	tail DNA	3.93%
CC(C)=CCC/C(C)=C/C(=O)O.Cc1cc(/C=C/C#N)cc(C)c1Nc1ccnc(Nc2ccc(C#N)cc2)n1	–	Capmul MCM C8	–	–	kinetic solubility	~50 mg/mL
CC1(CNC(=O)[C@H](CN)NC(=O)c2ccc(C#Cc3ccccc3)cc2)NC(=O)NC1=O (stereo partly drawn)	–	aqueous buffer	pH 7.4	–	thermodynamic solubility	859 µM (≈ 372 µg/mL)
CN(C(=O)n1cnc(-c2cccnc2)c1)C1CCCCC1	–	Wistar rat, medulla oblongata	oral, 10 mg/kg/day of BIA 10-2474, 48 h, repeated 5 days	–	concentration	7.3 ± 0.2 ng/g
Cl.[2H]C([2H])([2H])CC(=O)c1cnc(NC(=O)C2CC2)cc1Nc1cccc(-c2ncn(C([2H])([2H])[2H])n2)c1OC	geometric mean	human	oral, 50 mg single dose, fasted, liquid	–	AUC(0-inf)	4140 ng·h/mL
CN(C)C(=N)N=C(N)N	refers to: oropharyngeal pain	healthy men	oral, dose not given, 8 days, treatment-emergent, crossover trial	–	subjects with adverse event	4.5%
CC(C)(C(=O)N1CCOc2c(C#N)cncc2C1)C(F)F	refers to: vessel puncture site pain	healthy humans, both sexes	oral, 30 mg single dose	–	subjects with TEAE	0%
COc1cccc(OC)c1-c1cc(C(=O)NC2(C(=O)O)C3CC4CC(C3)CC2C4)nn1-c1ccc(C(=O)N(C)CCCN(C)CCCN(C)C(=O)CN2CCN(CC(=O)[O-])CCN(CC(=O)[O-])CCN(CC(=O)[O-])CC2)cc1C(C)C.[177Lu+3] (stereo not drawn)	–	mouse, HT-29 xenograft	24 h post injection, biodistribution	reference: tumour over muscle uptake	tumour-to-muscle ratio	216
Cc1ccc(C(=O)N(CCCN)C(c2nc3snc(C)c3c(=O)n2Cc2ccccc2)C(C)C)cc1 (stereo not drawn)	–	human patients	intravenous, 4 mg/day	–	grade ≥3 fatigue patients	0%
O=S(=O)(c1ccc(-c2ccc3nccc(Nc4ccncn4)c3c2)cc1)N1CCOCC1	–	female BALB/c mice, brain	intraperitoneal, 10 mg/kg, 4 h, mean, below LLOQ as zero	–	brain concentration	0 ng/mL
N#Cc1ccc2c(c1)[C@H]1CCCN(C(=O)c3ccc4[nH]cnc4c3)[C@H]1C2	–	human	80 mg, end of trial	reference: baseline	ACTH level change	1 pmol/L
O=C(Nc1cnccc1Cl)N1CCN(Cc2ccc3c(c2)OC(F)(F)O3)CC1	multiple ascending dose	young men	10 mg, treatment-emergent adverse events	–	back pain incidence	50%
O=[N+]([O-])c1ccc(-c2ccc(O)cc2)c2cccnc12	–	ICR mouse, male, plasma	oral, 5 mg/kg	–	AUC(0-t)/AUC(0-inf) ratio	0.87
CCCc1ccc(-c2ccc(-c3cc(F)c(F)c(F)c3)c(F)c2)cc1	–	rat, fetus	5000 ng/mL in perfusate, high dose, mixture of 21 LCMs	–	median fetal accumulation	0.429 ng/g
Cc1c2oc3c(C)ccc(C(=O)N[C@@H]4C(=O)N[C@H](C(C)C)C(=O)N5CCC[C@H]5C(=O)N(C)CC(=O)N(C)[C@@H](C(C)C)C(=O)O[C@@H]4C)c3nc-2c(C(=O)N[C@@H]2C(=O)N[C@H](C(C)C)C(=O)N3CCC[C@H]3C(=O)N(C)CC(=O)N(C)[C@@H](C(C)C)C(=O)O[C@@H]2C)c(N)c1=O	population PK, three-compartment	human	–	–	intercompartmental clearance Q2	8.1 L/h/70 kg
c1ccc(C2CCN(c3nc(-c4cnn5cccnc45)nc4ccccc34)C2)nc1 (stereo not drawn)	–	Japanese Pharmacopoeia disintegration test solution 2	pH 6.8	–	kinetic solubility	0.083 mg/mL (≈ 211 µM)
